Experimental data from different studies.
A part holds a random share of what one study measured. Changes are numbered by the printed parent chain.

Series 1 — target: BATF2, bZIP domain (human); method: DHFR protein complementation; matrix: yeast; relative to: wild-type JUN-FOS pair; direction: higher = stronger binding
Setting: single substitutions, most at no-binding floor
Parent: JUN, bZIP domain (human); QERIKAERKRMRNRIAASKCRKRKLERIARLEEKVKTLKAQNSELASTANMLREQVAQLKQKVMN; partner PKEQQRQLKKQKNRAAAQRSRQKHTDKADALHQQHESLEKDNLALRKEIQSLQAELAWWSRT
| Substitution | binding fitness [natural log] |
| --- | --- |
| K34H | -0.362 |
| L52C | -1.51 |
| A57T | -0.326 |
| L45A | -1.38 |
| L59P | -1.41 |
| E33G | -0.624 |
| E44K | -0.799 |
| V35T | -0.586 |
| Q55S | -0.67 |
| M51F | -0.322 |
| L45R | -1.36 |

Series 2 — method: RNA Bind-n-Seq; molecule type: RNA; matrix: in vitro; tested at: 365 nM; relative to: no-protein control; direction: higher = stronger binding
Target: RNA binding protein fox-1 homolog 2, RRM domain, GST-SBP tag (RBFOX2, Homo sapiens, UniProt O43251-10, residues 100-194)
Setting: natural RNA segment, single round, ends assumed
Residues (chain): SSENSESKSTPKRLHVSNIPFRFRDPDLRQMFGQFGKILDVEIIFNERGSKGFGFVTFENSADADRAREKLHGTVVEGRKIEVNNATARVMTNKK
| Sequence | RBNS enrichment (R) |
| --- | --- |
| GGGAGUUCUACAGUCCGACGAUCUCUUUGCAUUGUGUACAUUAUCAUUGCUACAUCAGUUGUUACAGUGUUGAAAGGCUACCAGUUAUAUUUGCUGUUAAUAGUCUAUUUGUAGAUUAGGAUUAAAGUGGGUUUGGAAUUCUCGGGUGCCAA | 1.89 |
| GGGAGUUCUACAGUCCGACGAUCUGUGGUAUUGGCUCUGGCCCAGCCUUCUCCCCUGUUACCCAUAAUUCUUGCCUCUUUCCAUAAUCCGUGGUUUCAGUUUGACUUUGUAUAUAAAGUUGGGGUUUUUUUUUUGGAAUUCUCGGGUGCCAA | 0.461 |
| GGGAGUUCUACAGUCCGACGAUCUGCAGGGCCUGGCUUGUACUUGGUGUGUGCAAGGCCCAAUGGCAGCCUGCAUACCCAGCCUACUCUUGGGCCCACUUGGACGCGCUGGCAGGAGGCCUGGGUCUCACCAGUGGAAUUCUCGGGUGCCAA | 0.872 |
| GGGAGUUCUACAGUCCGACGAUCGAAUGUAGUCCGUGAAGGGAGUGCCUCUCUGGGACCCCCUGUGUUGUUACAGGCUGUGCAGUGCAACAAUUCCAGCAAAAAUACCCUAUCCCCGCACUUAGUCAUUCGUGUGGAAUUCUCGGGUGCCAA | 0.466 |
| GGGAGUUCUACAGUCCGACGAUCAAUCCCUGCUAAGCCUCUACUCUGCAGGGAGACGCGACUGGCGGCUCCAGCAGGAACUACCUUUCUGAACCCGCGGAGACCCGCAUAAGCCUGACCCCUUGCUUCCUCCCUGGAAUUCUCGGGUGCCAA | 0.359 |
| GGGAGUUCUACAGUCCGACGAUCCUCCUUAAGCCCCUGAAGUUUUAUUGCAUCUGCUAGCACUUGAAUGCUGACUGACAGGCAGAUCCUGAUAUAUCCAAAUUCGAAUUAAUACCAUUUGAAAUGGCAAGUCUUGGAAUUCUCGGGUGCCAA | 5.92 |
| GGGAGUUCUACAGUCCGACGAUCAUCUCCUGUGUGAAGCUCAAGGUCUUAGGAGGAUUUUGGAUUUUGUGAAGAGAUGGACAGUCUCAUCAGAAAUGUGGUUGUAUAAUGGUGAGCGCCACAUGAGUGUAGAGUGGAAUUCUCGGGUGCCAA | 0.875 |
| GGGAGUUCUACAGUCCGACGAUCCAUGUGUAUCCCUUUAAGUUGUUUCUCCUUGACACGCUCCACAAUGGCAAAGAUACCAAGUCAUACCUACUCAACAGAUGGCAUGGGACAUAUGAAGAAAUGGAGACAUUUGGAAUUCUCGGGUGCCAA | 0.606 |
| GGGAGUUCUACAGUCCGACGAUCUAAAUGGAAAAAAAAAUAAAACUACAACAAGCCUACCUUUUAUAACUGGGUGUUUAGUGCUAAACAGCCAGAACCACAGAGACAGUAUUGUAUGACCAAAGCAUUUGAUGUGGAAUUCUCGGGUGCCAA | 0.44 |
| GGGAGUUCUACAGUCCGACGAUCAGAUGUGGGAAGGAUAUAGCUCGGGGCUUAGUGAGGAAGAUGGACACCCAUGGUUCAAAGUCUGGUGUUGACCCUAGAUAGCUAUGUGACUGUGGGUGGACCAUCUCCCCUGGAAUUCUCGGGUGCCAA | 0.74 |
| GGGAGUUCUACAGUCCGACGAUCAUGAGGGCCCCUCCCACCCAGUAUUUGUGGAGUCCAGGCGCCUGCCCUGUUUCAUGCCAGGGCCACCUCUGGUGAUCUAACUCUAUCCAAAUAGCGUUCUGCUUGGGAUGUGGAAUUCUCGGGUGCCAA | 0.236 |
| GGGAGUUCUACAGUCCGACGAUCCCCUGACAUCACUCAGCACUCACUUGCUACCAAUUCUAUUUAUUUCGGAAUUACAAGAUAGCGGGAAUCUCUCUGCAGGCUGGACUGGCAGGCUGUGGGGUGGGCGGGACUGGAAUUCUCGGGUGCCAA | 0.358 |

Series 3 — target: UBE2E1 UBC core domain (UniProt P51965); method: yeast two-hybrid; matrix: yeast; setting: mostly zero background; relative to: not given; direction: higher = stronger interaction
UniProt P51965, sequence (whole entry, looked up): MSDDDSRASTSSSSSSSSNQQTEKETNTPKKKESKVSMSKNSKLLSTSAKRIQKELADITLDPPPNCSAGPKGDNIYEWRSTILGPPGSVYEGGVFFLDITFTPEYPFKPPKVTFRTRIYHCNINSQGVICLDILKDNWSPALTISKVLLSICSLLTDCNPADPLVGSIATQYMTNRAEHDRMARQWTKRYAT
B1: DTX2 RING domain (UniProt Q86UW9); chain EELKVPPDEDCIICMEKLSTASGYSDVTDSKAIGSLAVGHLTKCSHAFHLLCLLAMYCNGNKDGSLQCPSCKTIYGEKTGTQ
B2: RFWD3 RING domain (UniProt Q6PCD5); chain ASMDEEEGDTCTICLEQWTNAGDHRLSALRCGHLFGYRCISTWLKGQVRKCPQCNKKARHSDIVV
B3: RNF133 RING domain (UniProt Q8WVZ7); chain DEEINPNGDSCVICFERYKPNDIVRILTCKHFFHKNCIDPWILPHGTCPICKCDILKVLGIQ
B4: ZMIZ2 RING domain (UniProt Q8NF64); chain GTIPGTPGPNGEDGVEQTAIKVSLKCPITFRRIQLPARGHDCRHIQCFDLESYLQLNCERGTWRCPVCNKTALLEGLEVDQYMLGILIYIQNSDYEEITIDPTCSWK
B5: RBCK1 RING domain (UniProt Q9BYM8); chain SLVLNTEPAECPVCYSVLAPGEAVVLRECLHTFCRECLQGTIRNSQEAEVSCPFIDNTYSCSGKLLEREIK
B6: UBOX5 RING domain (UniProt O94941); chain EQPGSILGPECASCKRVFSPYFKKEPVYQLPCGHLLCRPCLGEKQRSLPMTCTACQRPVASQDVLR
| Molecule | lacZ reporter activity |
| --- | --- |
| KETIKKTTKPCPRCHVPVEKNGGCMHMKCPQPQCRLEWCWNCGCEWNRVCMG (PRKN RING domain (UniProt O60260)) | 0 |
| AVPSGLEENLCKICMDSPIDCVLLECGHMVTCTKCGKRMNECPICRQYVIRAVHVF (RFFL RING domain (UniProt Q8WZ73)) | 0 |
| B1 (DTX2 RING domain) | 0 |
| B2 (RFWD3 RING domain) | 0 |
| B3 (RNF133 RING domain) | 9140 |
| B4 (ZMIZ2 RING domain) | 0 |
| YQNEVDDDLVCHICLQPLLQPLDTPCGHTFCYKCLRNFLQEKDFCPLDRKRLHFKLCKK (LNX2 RING domain (UniProt Q8N448)) | 0 |
| GSDDEEIPFKCFICRQSFQNPVVTKCRHYFCESCALQHFRTTPRCYVCDQQTNGVFNPA (RNF113A RING domain (UniProt O15541)) | 0 |
| B5 (RBCK1 RING domain) | 0 |
| GSRLQEINDVCAICYHEFTTSARITPCNHYFHALCLRKWLYIQDTCPMCHQKVYIEDDIK (RNF139 RING domain (UniProt Q8WU17)) | 0 |
| B6 (UBOX5 RING domain) | 0 |

Series 4 — target: CCNB2, cyclin fold, Cln2 fusion (human); method: yeast growth competition, sequencing; matrix: yeast; setting: weak parent motif; relative to: not given; direction: higher = stronger binding
Parent: CDKN1B docking peptide (human); PSACRNLFGPVDH; partner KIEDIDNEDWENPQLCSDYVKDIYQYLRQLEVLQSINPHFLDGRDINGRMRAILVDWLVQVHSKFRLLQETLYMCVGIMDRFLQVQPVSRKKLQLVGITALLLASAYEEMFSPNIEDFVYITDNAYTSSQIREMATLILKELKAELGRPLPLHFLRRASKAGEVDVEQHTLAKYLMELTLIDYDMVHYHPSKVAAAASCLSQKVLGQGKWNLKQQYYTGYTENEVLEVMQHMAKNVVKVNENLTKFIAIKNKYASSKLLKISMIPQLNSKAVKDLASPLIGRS
| Substitution | normalised enrichment score |
| --- | --- |
| A3Y | 0.134 |
| C4E | -0.217 |
| C4H | 0.0756 |
| N6A | -0.015 |
| G9H | 0.203 |
| D12N | 0.0244 |
| P10N | 0.121 |
| G9C | 0.408 |
| R5W | -0.323 |
| P10M | -0.221 |
| S2D | -0.26 |
| H13G | -0.377 |
| G9N | -0.125 |
| R5N | -0.179 |
| R5V | -0.0578 |
| G9R | -0.108 |
| A3M | 0.357 |
| C4W | 0.247 |
| N6Y | -0.357 |
| L7T | -0.124 |
| P10D | 0.293 |
| F8C | -0.308 |
| P1M | -0.0989 |
| L7W | -0.0141 |
| H13P | -0.163 |

Excerpt of the above (series 4):
| Substitution | normalised enrichment score |
| --- | --- |
| S2D | -0.26 |
| H13G | -0.377 |
| G9N | -0.125 |
| R5N | -0.179 |
| R5V | -0.0578 |
| G9R | -0.108 |
